Measurements from different studies.
Each line is one published result; not all experiments were run side by side. ± marks the error that the study gave. Converted amounts (≈) assume the structure as drawn.

Structure (SMILES) | organism | assay | system | setting | how to read | quantity | result
OC(CCN1CC=C(c2ccc(F)cc2)CC1)c1ccc(F)c2ccccc12 (centres unmarked) | Salmonella typhimurium | SOS/umu test | TA1535/pSK1002 | 0.063 mg/mL, 4 h, without S9, full range |  | survival | 43.6%
[Cl-].[Cl-].[Pt+2].[Ru+2].c1ccc(-c2nc3ccccc3nc2-c2ccccn2)nc1.c1cnc2c(c1)ccc1cccnc12.c1cnc2c(c1)ccc1cccnc12 | Danio rerio |  | embryos | 90 µM, 48 h |  | survival rate | 50 ± 2.6%
Cc1cc(C(=O)NC(C)(C)COc2cccc3c2C(N)=NS(=O)(=O)N3)cc(C)n1 | Salmonella typhimurium | Ames test, initial | TA1537 | 15.0 µg/plate | reference: solvent control | revertant ratio | 1
COc1ccc(C[C@H](NC(=O)[C@H](C)NC(=O)CN2CCOCC2)C(=O)N[C@@H](Cc2ccccc2)C(=O)C2(C)CO2)cc1 (stereo in doubt) | Plasmodium falciparum |  | NF54, artemisinin-sensitive |  | reference: HEK-293T CC50 over IC50 | selectivity ratio | > 14400
CCCC[C@H](NC(=O)C1CN(C)C1)c1ncc(-c2cc3ccccc3nc2OC)[nH]1 | Salmonella enterica serovar Typhimurium |  | TA1535, TA98, TA100 | with and without S9 |  | Ames mutagenicity | negative
[Cl-].[Cl-].[Pt+2].[Ru+2].c1ccc(-c2nccnc2-c2ccccn2)nc1.c1cnc2c(c1)ccc1cccnc12.c1cnc2c(c1)ccc1cccnc12 | Danio rerio |  | embryos | 60 µM, 48 h |  | survival rate | 60 ± 3.1%
CN(N=O)c1ccc(F)cc1 | Salmonella typhimurium | mutagenicity, Ames plate incorporation | TA98 | 1500 µg/plate, 3 d, without S9, methanol |  | revertant colonies per plate | 23 ± 5
COc1cccc(-c2n[nH]c(SCc3ccccn3)n2)c1OC | Salmonella typhimurium | Ames test, plate incorporation | TA1535 | 0.25 mg/plate, without S9 |  | revertant colonies per plate | 14
O=[N+]([O-])c1ccc(N2CCN(CCC(O)c3ccc(F)cc3)CC2)c(C(F)(F)F)c1 (centres unmarked) | Salmonella typhimurium | SOS/umu test | TA1535/pSK1002 | 0.004 mg/mL, 4 h, with S9, full range |  | survival | 81%
COc1ccnc(C(=O)N[C@H]2COC(=O)[C@H](Cc3ccccc3)[C@@H](OC(=O)C(C)C)[C@H](C)OC2=O)c1OCOC(=O)C(C)C | Cyprinus carpio | mortality |  | water exposure, flow-through, 96 h |  | LC50 | 5.41 ng/mL (≈ 8.8 nM)
CNC(=O)c1c(N(C)N=O)ncn1C | Salmonella typhimurium | mutagenicity, Ames plate incorporation | TA100 | 1500 µg/plate, without S9, methanol |  | revertant colonies per plate | 119 ± 4
[Cl-].[Cl-].[Pt+2].[Ru+2].c1ccc(-c2nc3cc4ccccc4cc3nc2-c2ccccn2)nc1.c1cnc2c(c1)ccc1cccnc12.c1cnc2c(c1)ccc1cccnc12 | Danio rerio |  | embryos | 90 µM, 12 h |  | survival rate | 76.7 ± 3.1%
CC(=O)N1CCC(C(=O)N2CCN3C(=O)c4cc(-c5ccccc5)ccc4NC(=O)C3C2)CC1 (centres unmarked) | Salmonella typhimurium |  | TA1537 | 5.0 µg/plate, added: rat liver S9 |  | revertants per plate | 20
O=[N+]([O-])c1ccc(NC2CCNCC2)c(C(F)(F)F)c1 | Salmonella typhimurium | SOS/umu test | TA1535/pSK1002 | 0.016 mg/mL, 4 h, without S9, full range |  | survival | 104%
Nc1nc2c(ncn2COCCO)c(=O)[nH]1 | Herpes simplex virus 2 |  | Vero, compound-resistant |  | reference: CC50 over IC50 | therapeutic index | 3.92
CC(C)N(N=O)C(C)C | Salmonella typhimurium | mutagenicity, Ames plate incorporation | TA100 | 5000 µg/plate, without S9, methanol |  | revertant colonies per plate | 165 ± 25
O=[N+]([O-])c1ccc(N2CCC(NCCC(O)c3ccc(F)c4ccccc34)CC2)c(C(F)(F)F)c1 (centres unmarked) | Salmonella typhimurium | SOS response, SOS/umu test | TA1535/pSK1002, TGA medium | 7.63e-06 mg/mL, 4 h, added: 10% rat liver S9 | reference: untreated | induction factor | 1

A few entries again:
Structure (SMILES) | organism | assay | system | setting | how to read | quantity | result
COc1cccc(-c2n[nH]c(SCc3ccccn3)n2)c1OC | Salmonella typhimurium | Ames test, plate incorporation | TA1535 | 0.25 mg/plate, without S9 |  | revertant colonies per plate | 14
Cc1cc(C(=O)NC(C)(C)COc2cccc3c2C(N)=NS(=O)(=O)N3)cc(C)n1 | Salmonella typhimurium | Ames test, initial | TA1537 | 15.0 µg/plate | reference: solvent control | revertant ratio | 1
CC(=O)N1CCC(C(=O)N2CCN3C(=O)c4cc(-c5ccccc5)ccc4NC(=O)C3C2)CC1 (centres unmarked) | Salmonella typhimurium |  | TA1537 | 5.0 µg/plate, added: rat liver S9 |  | revertants per plate | 20
